Published values of several laboratories.
Each numbered part is a random draw from the data of one study; scales do not carry over between parts. Positions count from the first letter of the parent shown.

Sample 1
Target: UBE2M UBC core domain (UniProt P61081)
Technique: yeast two-hybrid
Sample: yeast
Notes: mostly zero background
Baseline: not given
Direction: higher = stronger interaction
B1: TRAF5 RING domain (UniProt O00463); chain FVERLEERYKCAFCHSVLHNPHQTGCGHRFCQHCILSLRELNTVPICPVDKEVIKSQEVFK
B2: RC3H1 RING domain (UniProt Q5TC82); chain QAPQWTDFLSCPICTQTFDETIRKPISLGCGHTVCKMCLNKLHRKACPFDQTTINTDIELL
B3: SH3RF2 RING domain (UniProt Q8TEC5); chain DDLTLLDLLECPVCFEKLDVTAKVLPCQHTFCKPCLQRVFKAHKELRCPECRTPVFSNIEAL
B4: RNF111 RING domain (UniProt Q6ZNA4); chain EGTEEDTEEKCTICLSILEEGEDVRRLPCMHLFHQVCVDQWLITNKKCPICRVDIEAQLPSE
B5: VPS41 RING domain (UniProt P49754); chain KGVLVDEENICESCLSPILPSDAAKPFSVVVFHCRHMFHKECLPMPSMNSAAQFCNICSAKNRGPGSAI
B6: TRIM5 RING domain (UniProt Q9C035); chain LREVKLSPEGQKVDHCARHGEKLLLFCQEDGKVICWLCERSQEHRGHHTFLTEEVAREYQVKL
B7: TRIM5 RING domain (UniProt Q9C035); chain ILVNVKEEVTCPICLELLTQPLSLDCGHSFCQACLTANHKKSMLDKGESSCPVCRISYQPENIRP
B8: NEURL1 RING domain (UniProt O76050); chain VTPGLGQWSDECTICYEHAVDTVIYTCGHMCLCYACGLRLKKALHACCPICRRPIKDIIKT
Target sequence (chain): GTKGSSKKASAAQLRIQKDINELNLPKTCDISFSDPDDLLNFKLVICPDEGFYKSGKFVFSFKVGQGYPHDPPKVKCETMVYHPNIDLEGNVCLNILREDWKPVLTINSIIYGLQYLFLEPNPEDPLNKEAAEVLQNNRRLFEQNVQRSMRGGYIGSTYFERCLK
Molecule | lacZ reporter activity
B1 (TRAF5 RING domain) | 0
B2 (RC3H1 RING domain) | 0
QVDKAVFHMQSVKCLKCQEQKRAVLPCQHAALCELCAEGSECPICQPGRAHTLQS (UNK RING domain (UniProt Q9C0B0)) | 0
B3 (SH3RF2 RING domain) | 0
B4 (RNF111 RING domain) | 0
B5 (VPS41 RING domain) | 0
B6 (TRIM5 RING domain) | 0
GAAPGPEAAECLVCSELALLVLFSPCQHRTVCEECARRMKKCIRCQVVVSKKLRPD (MIB2 RING domain (UniProt Q96AX9)) | 0
B7 (TRIM5 RING domain) | 0
B8 (NEURL1 RING domain) | 0

Sample 2
Target: ABI1, truncated, D143A, DHFR fusion (Arabidopsis thaliana)
Technique: DHFR PCA, deep sequencing
Sample: yeast
Notes: methotrexate growth selection, single substitutions
Added: (+)-ABA 1.4 µM
Baseline: wild-type fitted maximum
Direction: higher = stronger binding
Starting sequence: PYL1, truncated, DHFR fusion (Arabidopsis thaliana); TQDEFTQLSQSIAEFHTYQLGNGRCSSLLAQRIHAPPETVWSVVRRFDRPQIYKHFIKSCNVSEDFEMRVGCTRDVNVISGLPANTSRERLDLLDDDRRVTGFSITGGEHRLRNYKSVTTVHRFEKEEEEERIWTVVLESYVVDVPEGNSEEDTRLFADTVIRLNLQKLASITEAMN
Variant | relative binding score [%]
N165L | 12.5
V145F | -26.1
S27L | 4.35
T135P | 3.38
Q2A | 73.9
G102Q | -1.73
E152M | 30.6
S104C | 11.3
T135H | -16.2
A170W | -14.3
Y115N | 4.71
E109I | 10.1
S150F | -31.9
N61I | 66.1
R74M | -15.7

Sample 3
Target: CCNE1, cyclin fold, Cln2 fusion (human)
Technique: yeast growth competition, sequencing
Sample: yeast
Notes: strong parent motif
Baseline: not given
Direction: higher = stronger binding
Starting sequence: INSM1 docking peptide (human); PKAIRKLHFEDEV; partner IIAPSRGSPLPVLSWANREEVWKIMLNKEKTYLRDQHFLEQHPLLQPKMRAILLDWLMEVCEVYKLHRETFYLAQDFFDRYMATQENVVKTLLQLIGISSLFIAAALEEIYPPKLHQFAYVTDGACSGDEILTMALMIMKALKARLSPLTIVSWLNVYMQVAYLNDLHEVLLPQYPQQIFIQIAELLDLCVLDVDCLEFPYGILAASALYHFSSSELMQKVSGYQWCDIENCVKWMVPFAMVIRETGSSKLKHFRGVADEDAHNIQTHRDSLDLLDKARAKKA
Variant | normalised enrichment score
PKAIRKLHVEDEV [F9V] | 0.24
PKAIRKLHREDEV [F9R] | -0.11
PKAIRTLHFEDEV [K6T] | 2.39
PKNIRKLHFEDEV [A3N] | 0.182
PKAIRKLHLEDEV [F9L] | 0.259
PKAIRALHFEDEV [K6A] | 2.63
PKAHRKLHFEDEV [I4H] | 1.65
PKAIRGLHFEDEV [K6G] | 0.243
PKAIRDLHFEDEV [K6D] | 0.0386

Sample 4
Target: Histone acetyltransferase KAT6A, both winged helices, GST fusion (KAT6A, Homo sapiens, UniProt Q92794, residues 1-181)
Technique: protein binding microarray
Form: double-stranded DNA, one strand shown
Sample: in vitro
Tested at: not given
Notes: 8-mer, flanks averaged, mean of 2 arrays, mostly near background
Baseline: not given
Direction: higher = stronger binding
Construct (chain): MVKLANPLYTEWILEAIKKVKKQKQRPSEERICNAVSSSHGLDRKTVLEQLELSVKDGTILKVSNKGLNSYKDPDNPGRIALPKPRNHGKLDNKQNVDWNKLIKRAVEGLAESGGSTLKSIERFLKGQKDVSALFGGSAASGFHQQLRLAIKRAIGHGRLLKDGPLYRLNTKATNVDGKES
Sequence | E-score
CGGCAGCC | 0.262
ACCAGCAC | -0.28
ACGATGGA | 0.0345
AACCTATC | -0.0987
CTTACTTC | 0.0308
ACTCCCCT | -0.219
AAAGGGCA | -0.127
ATCTACAT | -0.157
CGCCGGAG | 0.214
GGACGAAC | 0.254
CCTTATTA | -0.112
CCGGCCAA | 0.101
ACAAAAAA | 0.00403
ACTGGTTA | -0.0875
ACAACTGA | 0.0325
CCCATCGG | -0.0177
CTCGCGCA | 0.289
ACCCCGGT | 0.0271

Sample 5
Target: RNA binding protein fox-1 homolog 2, RRM domain, GST-SBP tag (RBFOX2, Homo sapiens, UniProt O43251-10, residues 100-194)
Technique: RNA Bind-n-Seq
Form: RNA
Sample: in vitro
Tested at: 365 nM
Notes: natural RNA segment, single round, ends assumed
Baseline: no-protein control
Direction: higher = stronger binding
All sequences stand within: GGGAGUUCUACAGUCCGACGAUC … UGGAAUUCUCGGGUGCCAA
Residues (chain): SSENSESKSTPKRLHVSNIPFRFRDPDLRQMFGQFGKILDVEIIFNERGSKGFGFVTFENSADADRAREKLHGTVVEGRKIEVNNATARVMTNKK
Sequence | RBNS enrichment (R)
ACCCACUUUAUUCAGUUCUGUACAUAUGGGGACAUCGGUCCAAGCCCAACCCACCUUAGCAUGUAUCACUCUGUGGAGAAUAAAGCACCCUAUGUACACAGCCAAAAGCC | 26.3
GGUGAUAACCAGGGCCAUAGAAGACCUUUUCUCUCUUACCUUUCUCUGAUAGGAUCGUGUCCUUCAGUCAAGAGCUCAUGUGAACUCCAGACUUUAUAUUACAUCUCUGA | 0.368
CCAUUCAGGGAACCGGCAGCGCCCACCUAGCGGAGCCGGCUUGGCCCCUCCUGAAAGGAUGGAAGGAAACCACCUCCAUCGGUACUCCAAAGUUCUUGAAGCCCACUUGG | 0.272
CAAUAGAUACCGCUGAAGGAUCCUUGGAGUCCAUCAUCCAUAUCUCAGUGGUCAUUCUUCUGCCUUCCAAAAUCUUAGUUUUAUAAAAGCAUUGUGUAUGACAGAGUGGC | 0.784
ACCAACUCCAGCUAUUGAGUCGUGAGACUUCUGUGUUGCAGAUGUGCCUGUUCCUCCAUCCUGCUGCCCCCCUCCAGGCCUGCCAGGUGGCCCCUGAAGGUUGCUUUAAG | 0.394
AGCUGUCCCCCUCCCACCCUACACAGUAGCUGGUCAGGGCUGAGUACAGUCCUGGGGGUAAGGGGAUGACAUGCCCAGGUGUCAGCUCAAAGGAUCUCUGCAUCAUCUUG | 0.387
UCCUGCAGAAGUGGCCCUGGAGAUUGAGGGUCCCUGGACACUCCCUAUGGAGAUCCGGGGAGCUAGGAUGGGGAACCUGCCACAGCCAGAACUGAGGGGCUGGCCCCAGG | 0.483
CUCUCCUUGUUUGCUAUGGGGGAGAUUGCUUCCCUCCCCAGAUCUUUGCUAUGUAGCUUAGAGUGACCUUAAACUUAUGAUCCCCCUGCCUCCACCUCCUCAAUGCCGUA | 1.47

Sample 6
Target: Sal-like protein 4, full length isoform B (SALL4, Homo sapiens, UniProt Q9UJQ4-2, residues 1-616)
Technique: universal PBM
Form: double-stranded DNA, one strand shown
Sample: in vitro
Tested at: not given
Notes: 8-mer, flanks averaged, mean of replicates
Direction: higher = stronger binding
Target sequence (chain): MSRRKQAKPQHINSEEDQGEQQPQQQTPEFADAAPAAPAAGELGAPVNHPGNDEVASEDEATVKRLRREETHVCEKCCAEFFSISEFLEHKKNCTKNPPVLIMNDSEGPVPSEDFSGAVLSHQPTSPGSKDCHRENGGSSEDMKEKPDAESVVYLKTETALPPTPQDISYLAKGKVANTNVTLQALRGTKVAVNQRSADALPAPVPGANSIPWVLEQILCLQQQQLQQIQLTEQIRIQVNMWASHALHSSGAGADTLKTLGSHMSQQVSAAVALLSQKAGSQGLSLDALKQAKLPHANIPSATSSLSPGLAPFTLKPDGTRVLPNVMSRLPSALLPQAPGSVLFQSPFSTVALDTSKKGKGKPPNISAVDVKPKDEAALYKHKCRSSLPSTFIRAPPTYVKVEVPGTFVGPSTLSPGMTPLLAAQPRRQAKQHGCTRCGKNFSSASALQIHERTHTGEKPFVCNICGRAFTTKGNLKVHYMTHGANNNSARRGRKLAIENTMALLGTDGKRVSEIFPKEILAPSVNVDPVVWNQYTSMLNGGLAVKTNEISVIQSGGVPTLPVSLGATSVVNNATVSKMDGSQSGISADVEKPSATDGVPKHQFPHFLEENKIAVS
Sequence | E-score
AAATGAAC | 0.217
GGCGCTAA | -0.168
GGTGACGA | 0.0237
ATGTGTCC | -0.053
AGAACAGG | -0.0887
ATCCCGGA | -0.273
TCTATTAA | 0.315
ACGTAGAA | 0.11
CACATGCA | -0.0355
AATTTACA | 0.342
ACACGACG | 0.0608
GCACCTAC | -0.243
CACCTCTA | -0.0394
CATCTTTA | 0.14
ACGCTTCT | -0.0698
ACCGTCAA | -0.0309
CCGGTGGA | -0.222
ACACCAAT | 0.0783
AGATTAGG | 0.0457
ACTTTCCG | 0.0491
CGTAGCGA | -0.156
CTTCGACA | 0.0112
CATTACCG | 0.0147
CGCTAACG | 0.0236
ACTCGAGA | 0.022

A few entries again (sample 4):
Sequence | E-score
AACCTATC | -0.0987
CTCGCGCA | 0.289
ACGATGGA | 0.0345
ACTCCCCT | -0.219
ACAACTGA | 0.0325
CTTACTTC | 0.0308
CCGGCCAA | 0.101
ACTGGTTA | -0.0875
ACAAAAAA | 0.00403
CCTTATTA | -0.112
GGACGAAC | 0.254
CCCATCGG | -0.0177
CGGCAGCC | 0.262
